Measurements of several laboratories.
Each numbered part is a random draw from the data of one study; scales do not carry over between parts. Positions count from the first letter of the parent shown.

Series 1
Target: Interferon regulatory factor 5, full length, phosphomimetic (IRF5, Homo sapiens, UniProt Q13568-2, residues 1-514, K96S/S451D/S453D/S456D/S462D)
Technique: protein-binding microarray
Molecule type: double-stranded DNA, one strand shown
Medium: in vitro
Concentration: 250 nM
Notes: 60-bp whole probe
With: salmon DNA 0.4 mg/ml
Baseline: random background probes
Direction: higher = stronger binding
All sequences stand within: GCCTAGCAC … GTCTTGATTCGCTTGACGCTGCTG
| Oligonucleotide | log fluorescence [z-score] |
| --- | --- |
| TCAAATATCTTTGTTGAACTGTGCTAG | 0.603 |
| GAGGGTATCGGTTTCGGGACGTGCTAG | 7.45 |
| GACGATATCAGTTTCGACACGTGCTAG | 7.63 |
| CAGGGGCTGCCTGGATGCCGGTGCTAG | -0.855 |
| GACGGACTGGGGACTGGGGCCGTGCTA | -0.624 |
| TCATATACCTGTATATCACTGTGCTAG | 0.681 |
| TTAGGTTCCGGTTGCGGTTAGTGCTAG | 2.24 |
| TAGAACTTCTCCACTGAATGAGTGCTA | 0.162 |
| GACGGACTGGGTAGCGGGACGTGCTAG | -0.779 |
| AGCTCTTTCGTTACTTCCTCGTGCTAG | 5.72 |
| GACGGTATCGGGTATCGTGACGTGCTA | 2.8 |
| TGCTTTCTCTTTCACTACTCGTGCTAG | 8.54 |
| TTAGATATCAGTTTCGATTCGTGCTAG | 9.72 |
| TTAGATTTCGGGACTGGATTTGTGCTA | 2.61 |
| CCCATGCTGGATGAAGTACAGTGCTAG | -0.598 |
| GACGGTTTCCTTCTCCTGCCGTGCTAG | 0.782 |
| GAAGGTTTCCTTTTCCTGACGTGCTAG | 0.916 |
| GACGGTTTTGGACTGGGGACGTGCTAG | 0.125 |
| CTAGGTCTCGGTCTCGGTTAGTGCTAG | 0.459 |
| GACGGTTTCGGACTGGGAACGTGCTAG | 4.37 |
| TTTGAGCTCTGTCTGGGATGGTGCTAG | -0.268 |
| TTAGGACTGCTCCTGCTTTAGTGCTAG | -0.661 |
| TGCTTTCCAATTCTCTTTTCGTGCTAG | 1.68 |

Series 2
Target: UBE2L6 UBC core domain (UniProt O14933)
Chain of UniProt O14933 (whole entry, looked up): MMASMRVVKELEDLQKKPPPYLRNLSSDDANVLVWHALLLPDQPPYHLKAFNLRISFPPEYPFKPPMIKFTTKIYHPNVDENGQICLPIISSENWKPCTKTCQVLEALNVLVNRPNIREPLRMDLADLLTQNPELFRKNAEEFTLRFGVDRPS
Technique: yeast two-hybrid
Medium: yeast
Notes: mostly zero background
Baseline: not given
Direction: higher = stronger interaction
B1: RNF133 RING domain (UniProt Q8WVZ7); chain DEEINPNGDSCVICFERYKPNDIVRILTCKHFFHKNCIDPWILPHGTCPICKCDILKVLGIQ
B2: RFWD3 RING domain (UniProt Q6PCD5); chain ASMDEEEGDTCTICLEQWTNAGDHRLSALRCGHLFGYRCISTWLKGQVRKCPQCNKKARHSDIVV
B3: RBCK1 RING domain (UniProt Q9BYM8); chain SLVLNTEPAECPVCYSVLAPGEAVVLRECLHTFCRECLQGTIRNSQEAEVSCPFIDNTYSCSGKLLEREIK
B4: MAP3K1 RING domain (UniProt Q13233); chain NSIKDEEEQMCPICLLGMLDEESLTVCEDGCRNKLHHHCMSIWAEECRRNREPLICPLCRSKWRSHDFYS
| Molecule | lacZ reporter activity |
| --- | --- |
| NLSELTPYILCSICKGYLIDATTITECLHTFCKSCIVRHFYYSNRCPKCNIVVHQTQPLY (PCGF6 RING domain (UniProt Q9BYE7)) | 0 |
| B1 (RNF133 RING domain) | 0 |
| KLRKLKEAMLCMVCCEEEINSTFCPCGHTVCCESCAAQLQSCPVCRSRVEHVQHVY (MYLIP RING domain (UniProt Q8WY64)) | 0 |
| B2 (RFWD3 RING domain) | 0 |
| KETIKKTTKPCPRCHVPVEKNGGCMHMKCPQPQCRLEWCWNCGCEWNRVCMG (PRKN RING domain (UniProt O60260)) | 0 |
| B3 (RBCK1 RING domain) | 0 |
| B4 (MAP3K1 RING domain) | 16800 |

Series 3
Target: RNA binding protein fox-1 homolog 2, RRM domain, GST-SBP tag (RBFOX2, Homo sapiens, UniProt O43251-10, residues 100-194)
Technique: RNA Bind-n-Seq
Molecule type: RNA
Medium: in vitro
Concentration: 365 nM
Notes: natural RNA segment, single round, ends assumed
Baseline: no-protein control
Direction: higher = stronger binding
All sequences stand within: GGGAGUUCUACAGUCCGACGAUC … UGGAAUUCUCGGGUGCCAA
Residues (chain): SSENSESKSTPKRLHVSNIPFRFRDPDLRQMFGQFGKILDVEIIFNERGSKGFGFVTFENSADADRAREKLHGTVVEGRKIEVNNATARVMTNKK
| Oligonucleotide | RBNS enrichment (R) |
| --- | --- |
| CCAUUUUAAAGUACAGUGCACAUAACUCCCUAGGCUGUUCCAACCUGACUAUUUGUAAAUGCUUUAGAGUUUUAAAUUAACACUUCUGUUGCUAAAUACUAUUUAUGUAA | 0.595 |
| UAUAUGAUUGCUACUCUAAAGGUUUGGAUAUAUGUAUUGUAAUUAGAAUUGUUGGCAUGAUGACAUUUCAUUUGUGCCAAAAAUAUUAAAAAUGCCUUUUUUGGAAGGAC | 0.71 |
| CCCCGUGAGACGGGGCUUCUGUGUGACCCUUACUUCCUCUGCACACUGGGACCCUUGAGCCAAGGGCAGUCCCUACCAGGUGCCCAAGCCGCAAGUCUCAGGGGGCUUUU | 0.348 |
| AGUAGUUCAGAUUCUUGCAUGAGCAAUUGACAGCAUCAGAGCACACAAUAUCAUAAGUUACAUAAAUUACACAAAGUACAUCAUAAAUUACACUACAGACACGUUAGGUA | 2.37 |
| UUACUUUACCUCAAGCAGACAGACAUAGGUUUUGAGGCUUGAAUACAUGGCAGUGGAAUACAAGGCCCUCCCUAGCAGCCGCCCCAGGCCUGGAAAGUGGGAGAUUUCAU | 0.293 |
| CAGGCUUAGAACUUGCAGAGUGUGUAUUCUUGGAUGGCUGAUGCAUCGACUUGCAUUCCCACUUAACACUUUGAUUAGCAUGAACUUGCCAAUCAAAAAAUGACAAUCAA | 0.79 |
| GCUUGUGUCAUGGGGAAACAGUUUCUCCCUCUACUCACAACACUAAAGGGAAAAAGGUGGAUUCAGAACUAUGACUUCAGGGCCCAGCAGUGUUGAUAGAGCAGCAUAUU | 0.645 |
| CCUGCUGGCUCAGUAUCGGCUGGCCAGUCAAGUGAAAGAGGAGGUGGAGCAUUUCCUGAAAGGCUUGAAUGAGCUGGUUCCUGAGAACCUCCUGGCUAUUUUUGAUGAGA | 0.803 |
| UCAGUAUCAGAAGUCAAAGCGAAACAAUACCGUCUGGCACUUAACUCUCAGGUCCCCCACUUAGUCAGGCCUGAGCUAAUUUAUUUGAGCGCAGAGUGUAAAAUUUUAAU | 0.369 |
| UUUUGUUACUUGCACUUGUUAUUCGAACCACUGAGAGCGAGAUGGGAAGCAUAGAUAUCUAUAUUUUUAUUUCUACUAUGAGGGCCUUGUAAUAAAUUUCUAAAGCCUCU | 0.495 |
| UCUCGCACAUUUCCACAGCACCUGCUAAGUUUGUAUUUAAUGGUUUUUGUUUUUGUUUUUGUUUGUUUCUUGAAAAUGAGAGAAGAGCCGGAGAGAUGAUUUUUAUUAAU | 2.29 |
| UUUUGCACUGUUUGUUCCCCGCUGUGUUUUGAGCUAGAACAAGGAGUUGCCUGGGAUUGGGAGCUGUGGGUGGUGCAAGUCAGGGAGUGGGCCAGGAGAGGCCCGGGUUU | 1.37 |

Series 4
Target: Histone acetyltransferase KAT6A, winged helix 2, GST fusion (KAT6A, Homo sapiens, UniProt Q92794, residues 85-181)
Technique: protein binding microarray
Molecule type: double-stranded DNA, one strand shown
Medium: in vitro
Concentration: not given
Notes: 8-mer, flanks averaged, mean of 2 arrays, mostly near background
Baseline: not given
Direction: higher = stronger binding
Construct (chain): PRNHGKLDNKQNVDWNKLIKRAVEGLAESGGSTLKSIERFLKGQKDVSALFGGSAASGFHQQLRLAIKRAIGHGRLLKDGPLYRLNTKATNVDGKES
| Oligonucleotide | E-score |
| --- | --- |
| CTAGATGC | -0.0447 |
| CGTTCCGC | 0.109 |
| ACCGAAAA | 0.0219 |
| TCAATAGA | -0.155 |
| AAGTTATA | 0.124 |
| GCTGCGTA | 0.00274 |
| CCATGCCC | -0.0112 |
| CGCCATAG | 0.0915 |
| ATAATTAT | 0.214 |
| AGTGCAAC | 0.0276 |
| AGACTCAC | -0.0283 |
| CCGGAGTC | 0.0308 |
| GCCTATAA | -0.171 |
| GTGTCAAC | -0.0307 |
| AGTTCTGC | 0.0742 |
| ATCCAGTG | 0.107 |
| GCTTATCA | 0.00825 |
| CATCGTCG | -0.14 |
| AAGAAGCT | -0.0307 |
| ATGGACCC | -0.127 |
| GAGGGCAA | 0.227 |
| GTCGTAAC | 0.0438 |
| ATGTAACC | -0.109 |
| GGAAGTGA | 0.0993 |
| CGCGTTCC | 0.159 |

Series 5
Target: Eukaryotic initiation factor 4A-I (EIF4A1, Homo sapiens, UniProt P60842, residues 1-406, full length assumed)
Chain of UniProt P60842 (whole entry, looked up): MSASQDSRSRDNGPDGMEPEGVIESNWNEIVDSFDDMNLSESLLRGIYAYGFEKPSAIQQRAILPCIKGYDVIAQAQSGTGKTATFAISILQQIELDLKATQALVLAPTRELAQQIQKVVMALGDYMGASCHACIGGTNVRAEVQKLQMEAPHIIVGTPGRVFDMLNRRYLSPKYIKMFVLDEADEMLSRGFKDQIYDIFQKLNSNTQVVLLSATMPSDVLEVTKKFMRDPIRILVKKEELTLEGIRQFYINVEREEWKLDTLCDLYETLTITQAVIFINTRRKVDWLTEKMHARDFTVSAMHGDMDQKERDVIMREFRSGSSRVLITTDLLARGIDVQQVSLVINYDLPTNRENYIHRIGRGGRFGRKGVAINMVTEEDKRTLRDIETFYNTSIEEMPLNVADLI
Technique: RNA Bind-n-Seq
Molecule type: RNA
Medium: in vitro
Concentration: not given
Notes: 4-mer, random 30-nt RNA, single round
With: RocA, ADP, phosphate
Baseline: input library
Direction: higher = stronger binding
| Oligonucleotide | 4-mer enrichment |
| --- | --- |
| UUAG | 1.09 fold |
| GUAA | 1.13 fold |
| CUCA | 0.491 fold |
| CCAG | 0.722 fold |
| GAAG | 1.6 fold |
| GCAA | 0.935 fold |
| UUGA | 1.49 fold |
| GGCU | 0.683 fold |
| ACUA | 0.694 fold |
| UGAC | 0.684 fold |
| CGAA | 0.98 fold |
| UCCA | 0.58 fold |
| UGCU | 0.623 fold |
| UCCG | 0.618 fold |
| GCAU | 0.842 fold |

Series 6
Target: TAR DNA-binding protein 43, full length, His tag (TARDBP, Homo sapiens, UniProt Q13148, residues 1-414)
Technique: RNA Bind-n-Seq
Molecule type: RNA
Medium: in vitro
Concentration: 20 nM
Notes: 6-mer, flanks averaged, single round
With: 150 mM KCl
Baseline: input library
Direction: higher = stronger binding
| Oligonucleotide | 6-mer enrichment (R) |
| --- | --- |
| UUGAAA | 0.681 |
| AAAGUU | 0.57 |
| AUGCUG | 0.852 |
| GGAGUA | 1.46 |
| ACCGUU | 0.582 |
| AUCGUU | 0.555 |
| GGGGUA | 3.78 |
| AGGUAU | 0.837 |
| UUUUUC | 0.728 |
| GUCAAU | 0.672 |
| AUGCCC | 0.657 |
| CUUUUC | 0.615 |
| AGCCUA | 0.639 |
| AUCUGC | 0.616 |
| CUUGCU | 0.617 |
| CCGACA | 0.681 |
| GCGGCU | 1.45 |
| UUCGAC | 0.578 |
| AAGGCC | 0.806 |
| ACGUAG | 0.858 |

Series 7
Target: CCNA2, cyclin fold, Cln2 fusion (human)
Technique: yeast growth competition, sequencing
Medium: yeast
Notes: strong parent motif
Baseline: not given
Direction: higher = stronger binding
Starting sequence: PKN2 docking peptide (human); VSAVQKLDFSDTM; partner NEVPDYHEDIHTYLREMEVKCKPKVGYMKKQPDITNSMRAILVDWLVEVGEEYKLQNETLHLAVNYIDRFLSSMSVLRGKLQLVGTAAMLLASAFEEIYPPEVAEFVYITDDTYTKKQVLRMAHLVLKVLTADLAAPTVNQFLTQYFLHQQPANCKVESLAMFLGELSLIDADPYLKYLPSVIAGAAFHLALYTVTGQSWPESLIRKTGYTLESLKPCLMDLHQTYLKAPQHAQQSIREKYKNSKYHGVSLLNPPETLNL
| Substitution | normalised enrichment score |
| --- | --- |
| V1H | 2.47 |
| Q5R | 5.38 |
| S2A | 2.51 |
| D8Y | 1.48 |
| V4W | 1.05 |
| F9M | -0.659 |
| V4I | 1.46 |
| S2W | 0.803 |
| S10T | 2.07 |
| V4E | -0.178 |
| F9G | -0.0244 |
| V4T | -0.497 |
| S2L | 1.32 |
| M13I | 2.62 |
| D8K | 1.6 |

Excerpt of the above (series 6):
| Oligonucleotide | 6-mer enrichment (R) |
| --- | --- |
| AUCUGC | 0.616 |
| GGGGUA | 3.78 |
| AUCGUU | 0.555 |
| CCGACA | 0.681 |
| AGGUAU | 0.837 |
| GUCAAU | 0.672 |
| ACGUAG | 0.858 |
| AUGCCC | 0.657 |
| UUGAAA | 0.681 |
| AAGGCC | 0.806 |
| GGAGUA | 1.46 |
| AAAGUU | 0.57 |
| GCGGCU | 1.45 |
| CUUUUC | 0.615 |
| UUCGAC | 0.578 |
| CUUGCU | 0.617 |
| AUGCUG | 0.852 |
| UUUUUC | 0.728 |
